Experimental data from different studies.
Every numbered part comes from another study and shows a few of its results, in no order.

Study 1
Target: Sal-like protein 4, full length isoform B (SALL4, Homo sapiens, UniProt Q9UJQ4-2, residues 1-616)
Method: universal PBM
Molecule type: double-stranded DNA, one strand shown
Sample: in vitro
Concentration: not given
Setting: 8-mer, flanks averaged, mean of replicates
Direction: higher = stronger binding
Residues (chain): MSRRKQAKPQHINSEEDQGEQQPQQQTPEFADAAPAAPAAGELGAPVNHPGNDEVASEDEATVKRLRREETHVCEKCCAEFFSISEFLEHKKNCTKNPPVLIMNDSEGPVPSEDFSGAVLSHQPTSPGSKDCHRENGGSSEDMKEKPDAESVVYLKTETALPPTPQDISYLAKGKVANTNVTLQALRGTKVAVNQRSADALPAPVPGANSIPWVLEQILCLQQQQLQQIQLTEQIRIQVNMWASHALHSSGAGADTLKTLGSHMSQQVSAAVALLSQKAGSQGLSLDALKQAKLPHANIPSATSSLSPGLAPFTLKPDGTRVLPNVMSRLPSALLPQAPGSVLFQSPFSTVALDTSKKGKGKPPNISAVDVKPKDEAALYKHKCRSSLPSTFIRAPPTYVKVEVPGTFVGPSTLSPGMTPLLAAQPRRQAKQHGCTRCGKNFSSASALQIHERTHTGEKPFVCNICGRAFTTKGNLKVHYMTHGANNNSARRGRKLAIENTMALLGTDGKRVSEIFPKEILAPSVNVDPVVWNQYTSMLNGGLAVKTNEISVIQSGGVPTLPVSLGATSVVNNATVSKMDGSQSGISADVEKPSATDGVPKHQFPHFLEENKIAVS
Strand	E-score
CCCTATTC	-0.0622
ATACTGTA	0.236
AGAGTTCG	-0.093
AAAACGAC	0.00476
ACTTGCCG	-0.143
AGCACCTC	-0.225
ACCAAACT	0.0393
CTGCGATC	-0.127
ACGTTTCG	-0.00011
GCCAAGGA	-0.121
AAGGACCT	0.00218
CAAAAAGA	0.0794
GGCCCTAC	-0.308
GGTTACGA	0.0165
TACTAGAA	0.225
CGCAATAA	0.186
GAACAGGC	-0.117
AGGTAGAC	-0.13
AATCTGGC	-0.118
CCGGCGGC	-0.354
CCGACAAC	-0.151
AACGGGAG	-0.0214

Study 2
Target: Histone acetyltransferase KAT6A, both winged helices, GST fusion (KAT6A, Homo sapiens, UniProt Q92794, residues 1-181)
Method: protein binding microarray
Molecule type: double-stranded DNA, one strand shown
Sample: in vitro
Concentration: not given
Setting: 8-mer, flanks averaged, mean of 2 arrays, mostly near background
Reference: not given
Direction: higher = stronger binding
Construct (chain): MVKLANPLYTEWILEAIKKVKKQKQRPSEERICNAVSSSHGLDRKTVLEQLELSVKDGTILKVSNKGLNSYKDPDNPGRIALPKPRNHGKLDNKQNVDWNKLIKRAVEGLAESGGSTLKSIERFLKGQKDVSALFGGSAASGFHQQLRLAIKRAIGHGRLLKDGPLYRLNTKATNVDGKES
Strand	E-score
ATCCTCAG	-0.139
ACGCATGA	0.116
ATCTAGGG	-0.301
GGCGTTTA	0.101
GAATGATC	-0.00658
GGCGCGGA	0.288
CATACAAA	0.0574
GTCCAAGA	-0.0292
CACTCAAC	-0.172
AAGTTCCC	0.0609
ACGCGAGA	0.106
ATCTGTTA	-0.0785
CTATCGTA	0.00352
AGGTAGGC	-0.23
ATGACCTA	-0.0475
AAGAGTAC	-0.0912
TATTCTGA	-0.0559
ACTTGTAT	-0.092
TATGGCGA	-0.0701
CTGCACTA	-0.00737
CCACATCC	-0.143
GGATTTTA	-0.128
CTAACAAG	-0.0418
TGAGAACA	-0.0622

Study 3
Target: Ras GTPase-activating protein-binding protein 1, C-terminal RGG region (G3BP1, Homo sapiens, UniProt Q13283)
Chain of UniProt Q13283 (whole entry, looked up): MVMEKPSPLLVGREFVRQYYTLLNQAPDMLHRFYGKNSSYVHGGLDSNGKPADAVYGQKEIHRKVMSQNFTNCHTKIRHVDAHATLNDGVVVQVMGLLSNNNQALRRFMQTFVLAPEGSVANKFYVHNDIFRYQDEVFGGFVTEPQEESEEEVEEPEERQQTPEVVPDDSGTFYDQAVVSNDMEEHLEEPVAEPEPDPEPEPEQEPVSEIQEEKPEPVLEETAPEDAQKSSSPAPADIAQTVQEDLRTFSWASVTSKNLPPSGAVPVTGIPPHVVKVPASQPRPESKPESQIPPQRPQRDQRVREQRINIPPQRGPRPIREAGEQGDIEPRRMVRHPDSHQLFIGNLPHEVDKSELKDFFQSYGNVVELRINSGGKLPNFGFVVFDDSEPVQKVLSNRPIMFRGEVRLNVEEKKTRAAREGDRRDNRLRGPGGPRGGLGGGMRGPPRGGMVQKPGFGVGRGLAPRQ
Method: RNA Bind-n-Seq
Molecule type: RNA
Sample: in vitro
Concentration: 1 µM
Setting: whole 134-nt RNA, ends assumed
Together with: 150 mM KCl
Reference: input library
Direction: higher = stronger binding
Shared flanks, not repeated: GGGAGUUCUACAGUCCGACGAUC … UGGAAUUCUCGGGUGUCAAGG
Strand	log2 enrichment
CCUCAAGUCCUGUGCUACACAUCGUAUGUACCGAAUCGGGAGGGGAGGAGGGGAAAGUAUUAUGUUACGCCGUUCGGAUCUGCACUUCCA	0.784
AGUCCUGUGCUACACAUCGUAUGUACCGAAUCGGAAAAAAAGGAAAAAGGAAAAAGGAAAGUAUUAUGUUACGCCGUUCGGAUCUGCACU	-2.1
CUGUGCUACACAUCGUAUGUACCGAAUCGGGGCCCCCCCGGGGCCCCCCCGGCCCCCCCGGGAAAGUAUUAUGUUACGCCGUUCGGAUCU	-2.05
UCCUGUGCUACACAUCGUAUGUACCGAAUCGGGAAAAAGGGAAAAAGGGGAAAAAGGGGAAAGUAUUAUGUUACGCCGUUCGGAUCUGCA	-0.269
UCCUGUGCUACACAUCGUAUGUACCGAAUCGGGGAAAAAGGGGUUUGGGGAAAAAGGGGAAAGUAUUAUGUUACGCCGUUCGGAUCUGCA	1.82
AGUCCUGUGCUACACAUCGUAUGUACCGAAUCGGGCCCCGGGCCCCGGGGCCCCGGGGAAAGUAUUAUGUUACGCCGUUCGGAUCUGCAC	-2.12
CCUGUGCUACACAUCGUAUGUACCGAAUCGGGGAAAAAAAGGGGAAAGGGGAAAAAGGGGAAAGUAUUAUGUUACGCCGUUCGGAUCUGC	0.861
UGGUCCUGGUGGCAUGCGGGGAGGAAGAGGUGGCCUCAUGGAUCGUGGUGGUCCCGGUGGAAUGUUCAGAGGUGGCCGUGGUGGAGACAG	1.89
CAAGUCCUGUGCUACACAUCGUAUGUACCGAAUCGGUUUGGGUUUGGGGUUUGGGGAAAGUAUUAUGUUACGCCGUUCGGAUCUGCACUU	-0.709

Study 4
Target: RNA binding protein fox-1 homolog 2, RRM domain, GST-SBP tag (RBFOX2, Homo sapiens, UniProt O43251-10, residues 100-194)
Method: RNA Bind-n-Seq
Molecule type: RNA
Sample: in vitro
Concentration: 365 nM
Setting: natural RNA segment, single round, ends assumed
Reference: no-protein control
Direction: higher = stronger binding
Shared flanks, not repeated: GGGAGUUCUACAGUCCGACGAUC … UGGAAUUCUCGGGUGCCAA
Target sequence (chain): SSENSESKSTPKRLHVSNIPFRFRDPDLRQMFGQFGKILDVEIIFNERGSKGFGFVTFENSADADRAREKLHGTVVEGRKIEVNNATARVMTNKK
Strand	RBNS enrichment (R)
GCCCCUAUGUGCCUAGAUGGUUUGGGGCUACUGGUGCGUGCAGGAGAGGUGGGGUCACCCAAGCUGAGUGCCAUCUUUUCCUGAAUGUCAGAUCUGCAGCCUCGGGGACU	0.428
AAUCGAUAAUAAAUGAUGGCUUGAUACACUACAGAAAGUGUAUUCUUGUUUAAAAGAUGUCUGAAACCUUUUUAUGGCGUGUUUGUAUUAAAAAUAAAGUAUAGAGGCCA	0.371
CCCAGCAAGUCAUAACCUCCUGUCUUCUAGGAACCCGUGGGCUUUUACUGUGCAUGUCUCUGUACAAAGUGUACCUCUGGAAGCUGCCAAGUGAUAACACUGCUUUCUUA	6.21
UUUAUUGAUUGCUUCUUUCCAAAAUCGAAAAGAAAGAAAAAAGAACGUGACAGGAGAAGGGAAGCUGGAAACUGCCAUGGCCAGAAUUGCCCCUCCCCCACACUCACUGC	2.15
GGGGUAUCCCACUGCUAUACUGUUCUACUGCUUCCCUCAGUAUCUGAAUGUCUCAAUUUAAAACUUGAAGCUCUUUAGACCAAUAGACUGGUGAGAGGAGAAAGGAGCUU	0.336
AGCUUCCAGAAGCACGCUGUGUUCUUUUUGCCAAAUAUGUUCAGUUAUAGUCAGCUGAUAGAUUGAUGUGGCUGAAAACAGGACCGAGUGAACUGAUGCUCCCACCUGGG	0.932
AUUAUACACACACAGAGGCACUCACCGCUGGCUCUCCUUUCCUUGGGGAUUGGGGUGGGGGUGAUAACGUUUUCUCCAGUUCAACAGGAGUGCUUGACCCAAGUCAGUCA	0.591
CUCUCUUUAAAGUCUAGUCCCGGCAUUCCUCCAUGUGAUUGACAGCCAGACCUCUGGGUUCCCAGGAAAUUAUCUUCCAGUUGAAUGACCAUUUACUUGAUACAAAUUGU	0.429

Study 5
Target: RING finger protein unkempt homolog, zinc fingers 1-6, GST-SBP tag (UNK, Homo sapiens, UniProt Q9C0B0, residues 30-357)
Chain of UniProt Q9C0B0 (30-357, looked up): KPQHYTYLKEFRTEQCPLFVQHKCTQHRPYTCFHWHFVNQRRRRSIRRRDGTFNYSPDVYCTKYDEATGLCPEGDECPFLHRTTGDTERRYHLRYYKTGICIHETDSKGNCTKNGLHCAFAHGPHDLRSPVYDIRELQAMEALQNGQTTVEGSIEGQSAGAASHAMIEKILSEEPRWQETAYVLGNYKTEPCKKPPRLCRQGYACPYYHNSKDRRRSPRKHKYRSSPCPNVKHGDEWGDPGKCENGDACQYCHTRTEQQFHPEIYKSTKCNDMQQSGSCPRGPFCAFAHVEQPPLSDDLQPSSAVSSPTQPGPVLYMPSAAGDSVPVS
Method: RNA Bind-n-Seq
Molecule type: RNA
Sample: in vitro
Concentration: not given
Setting: RNA with constant flanks, ends assumed
Reference: input RNA pool
Direction: higher = stronger binding
Shared flanks, not repeated: GGGAGUUCUACAGUCCGACGAUC … CAACAGAGGAUUGAGCAUCA
Strand	bound/input enrichment
UGUUUGGAAGGAAUGAUUCUUGCAGCAAAAUCAGUUGAUGAAAGAAGAGACUCUCAAAUGGUGGCCGACUCCUUCAAAUCUGGUUUUGAACCUCCAGGAGACUUUCCAUUUGAAGAUUAC	0.14 ratio
UAGUGACAUGGCCUUUGGGGACAGUACAUGAUUUCUCAUAAUUUGAAUUCAUAGUAGAUACCGUUAAGGGAACAGCAGUCAGGUUAUGAAUCUUUUCCCAUUUUUCUUUUUAAGUAAAUU	0.826 ratio
AAAGCUGCACUGAAAAGCUUGAUUCCUACAUUGGAAAAAACCAAAAGCACCAGCAAAGGAACCGAAAUUCUACUUGAAAAACUGAGCACAUAGGUGGAAAGAGUUAAGAGCAAGAUGGAA	0.159 ratio
UCAGCGUUUGACAAUCCAACUUACGAGACUGGAGAGACGAGAGAAUAUGAAGUCUCCAUCCCGGUGGGGGCAGUCUAGGGAAGUCAACUCAGACUUGCACCACAGUCCAGCAGCAAGGCU	0.145 ratio
GACAUUAUCAAGUUUCUGCAGGAACACGGUUCAGAUUCGUUUCUUGCAGAACAUAAAUUAUCCGGAAACAUUAAAAAUGUGGCCAAGACAGCUAACAAGGACCACUUGGUUACAGCCUAU	0.233 ratio
GCUGGUCUUUUGGAAAAAAAAUGGACAUCUGUUAUUAGAUUACAAAAGAAGGUUAUGGAAUCCGAAUCAAAGCUAAAUGAAGCAAAAGAAGAAUUUACGUCAGGUGGACCUCUUGGUCAG	0.426 ratio
UGCUUCAGAACCCUUGUCUGUUGUGGUAUUGUAGAUGGGUUUAAGUCAUGGCCUCUUUUGACCGAUUUUGUUGUGUCAUGUGAGCAAGUCAUUACACGAUCUACUGUUGGAAUGAACUGU	0.154 ratio
GCAACUUGGAAAGGCUGUCUUUCAAACUUCAGUUCCUAUCUGACUAAAACAGCCGAUUUCACCGAACAAUCAGUUUUUUACUGGGAACAGGUGACAGAUGGGUUUUUCAUUUUCAAUGAA	0.158 ratio

For quick reference, copied from above (study 1):
Strand	E-score
CAAAAAGA	0.0794
GGCCCTAC	-0.308
GGTTACGA	0.0165
TACTAGAA	0.225
CGCAATAA	0.186
